Experimental data gathered from unrelated publications.
± gives the spread as reported.
DRD2: D(2) dopamine receptor (DRD2, Homo sapiens, UniProt P14416)
UniProt P14416, sequence (whole entry, looked up): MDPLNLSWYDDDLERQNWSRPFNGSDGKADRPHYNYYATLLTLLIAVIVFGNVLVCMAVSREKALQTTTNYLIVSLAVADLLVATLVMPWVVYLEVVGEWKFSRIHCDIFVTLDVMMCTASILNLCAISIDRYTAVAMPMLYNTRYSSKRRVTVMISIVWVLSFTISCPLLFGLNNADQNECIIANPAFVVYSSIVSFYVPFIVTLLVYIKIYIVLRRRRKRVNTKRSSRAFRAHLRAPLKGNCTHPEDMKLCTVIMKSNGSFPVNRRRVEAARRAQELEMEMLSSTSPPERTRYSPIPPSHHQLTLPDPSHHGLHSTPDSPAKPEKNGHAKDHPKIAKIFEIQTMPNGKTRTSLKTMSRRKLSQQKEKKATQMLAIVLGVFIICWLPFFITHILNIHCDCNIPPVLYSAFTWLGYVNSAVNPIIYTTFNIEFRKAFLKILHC
CDK6 with cyclin D1: Cyclin-dependent kinase 6, with cyclin D1 (CDK6, Homo sapiens, UniProt Q00534)
UniProt Q00534, sequence (whole entry, looked up): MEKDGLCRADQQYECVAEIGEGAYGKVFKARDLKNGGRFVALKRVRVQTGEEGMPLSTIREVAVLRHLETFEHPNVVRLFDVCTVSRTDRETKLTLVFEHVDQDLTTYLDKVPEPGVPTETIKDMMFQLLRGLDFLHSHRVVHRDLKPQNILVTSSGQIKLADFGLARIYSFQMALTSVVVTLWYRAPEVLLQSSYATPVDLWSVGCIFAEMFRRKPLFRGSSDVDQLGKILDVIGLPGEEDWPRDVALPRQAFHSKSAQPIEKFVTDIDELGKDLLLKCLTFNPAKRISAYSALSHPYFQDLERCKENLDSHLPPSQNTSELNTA
KRAS C118S/G12V with SOS1: GTPase KRas, with SOS1 (KRAS, Homo sapiens, UniProt P01116, C118S/G12V)
TAF1L BD2: Transcription initiation factor TFIID subunit 1-like, BD2 (TAF1L, Homo sapiens, UniProt Q8IZX4)
Lysine--tRNA ligase, cytoplasmic: Lysine--tRNA ligase, cytoplasmic (Arabidopsis thaliana, UniProt Q9ZPI1)
UniProt Q9ZPI1, sequence (whole entry, looked up): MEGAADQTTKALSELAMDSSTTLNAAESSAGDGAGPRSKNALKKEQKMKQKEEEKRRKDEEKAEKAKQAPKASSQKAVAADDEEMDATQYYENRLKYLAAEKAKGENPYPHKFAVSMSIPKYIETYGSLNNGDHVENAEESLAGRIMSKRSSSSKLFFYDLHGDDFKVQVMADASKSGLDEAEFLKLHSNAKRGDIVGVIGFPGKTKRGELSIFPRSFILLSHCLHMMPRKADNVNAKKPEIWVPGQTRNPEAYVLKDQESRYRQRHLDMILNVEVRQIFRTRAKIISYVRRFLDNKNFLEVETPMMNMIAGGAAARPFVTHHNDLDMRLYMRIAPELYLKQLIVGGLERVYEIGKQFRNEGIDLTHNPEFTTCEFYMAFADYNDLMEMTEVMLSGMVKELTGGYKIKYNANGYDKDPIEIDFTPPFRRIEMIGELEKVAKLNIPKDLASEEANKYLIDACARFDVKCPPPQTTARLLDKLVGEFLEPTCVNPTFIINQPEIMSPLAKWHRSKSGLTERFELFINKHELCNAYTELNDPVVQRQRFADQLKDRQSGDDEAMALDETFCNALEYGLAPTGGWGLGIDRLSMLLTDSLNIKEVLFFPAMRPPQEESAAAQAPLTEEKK
60 kDa heat shock protein, mitochondrial with HSP10: 60 kDa heat shock protein, mitochondrial, with HSP10 (Homo sapiens, UniProt P10809)
UniProt P10809, sequence (whole entry, looked up): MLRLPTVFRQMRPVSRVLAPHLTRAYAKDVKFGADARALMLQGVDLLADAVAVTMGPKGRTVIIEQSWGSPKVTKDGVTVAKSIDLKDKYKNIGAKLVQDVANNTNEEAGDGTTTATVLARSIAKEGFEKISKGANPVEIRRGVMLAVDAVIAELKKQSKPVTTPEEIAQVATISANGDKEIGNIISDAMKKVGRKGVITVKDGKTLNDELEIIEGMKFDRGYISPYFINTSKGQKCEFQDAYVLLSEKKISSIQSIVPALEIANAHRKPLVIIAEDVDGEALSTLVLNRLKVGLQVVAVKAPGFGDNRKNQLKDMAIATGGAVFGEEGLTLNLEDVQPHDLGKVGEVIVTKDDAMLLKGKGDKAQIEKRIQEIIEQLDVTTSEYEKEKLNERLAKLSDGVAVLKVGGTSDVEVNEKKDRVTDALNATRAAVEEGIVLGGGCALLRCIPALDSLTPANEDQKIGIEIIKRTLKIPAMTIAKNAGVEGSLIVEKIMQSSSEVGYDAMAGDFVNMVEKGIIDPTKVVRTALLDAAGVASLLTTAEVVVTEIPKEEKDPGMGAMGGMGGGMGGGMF
PTGS2: Prostaglandin G/H synthase 2 (PTGS2, Homo sapiens, UniProt P35354)
UniProt P35354, sequence (whole entry, looked up): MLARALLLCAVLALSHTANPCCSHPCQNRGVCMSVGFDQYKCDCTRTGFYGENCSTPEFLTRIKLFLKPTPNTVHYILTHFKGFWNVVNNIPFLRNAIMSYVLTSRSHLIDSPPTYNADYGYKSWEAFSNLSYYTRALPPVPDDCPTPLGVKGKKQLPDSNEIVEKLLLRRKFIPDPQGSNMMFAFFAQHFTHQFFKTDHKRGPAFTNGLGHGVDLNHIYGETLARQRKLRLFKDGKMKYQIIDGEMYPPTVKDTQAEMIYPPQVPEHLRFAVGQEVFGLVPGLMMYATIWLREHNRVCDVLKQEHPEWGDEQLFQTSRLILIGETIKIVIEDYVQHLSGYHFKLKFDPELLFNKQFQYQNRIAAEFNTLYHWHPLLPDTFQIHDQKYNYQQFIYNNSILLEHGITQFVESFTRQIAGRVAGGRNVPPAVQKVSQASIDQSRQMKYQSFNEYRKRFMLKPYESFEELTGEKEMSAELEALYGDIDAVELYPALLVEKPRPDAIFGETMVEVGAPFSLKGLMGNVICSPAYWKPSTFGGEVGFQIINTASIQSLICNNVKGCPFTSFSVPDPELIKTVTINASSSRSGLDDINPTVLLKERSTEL
MCL1: Induced myeloid leukemia cell differentiation protein Mcl-1 (MCL1, Homo sapiens, UniProt Q07820)
UniProt Q07820, sequence (whole entry, looked up): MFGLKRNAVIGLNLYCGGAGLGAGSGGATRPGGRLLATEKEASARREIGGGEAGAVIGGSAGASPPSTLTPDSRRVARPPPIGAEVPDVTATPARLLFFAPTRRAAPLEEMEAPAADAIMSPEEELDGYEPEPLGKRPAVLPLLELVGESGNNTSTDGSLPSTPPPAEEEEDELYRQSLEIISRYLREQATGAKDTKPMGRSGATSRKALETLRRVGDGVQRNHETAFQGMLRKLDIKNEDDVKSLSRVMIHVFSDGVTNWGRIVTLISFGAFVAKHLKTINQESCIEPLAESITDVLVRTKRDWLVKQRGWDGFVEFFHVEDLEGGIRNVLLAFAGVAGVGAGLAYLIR
CSNK1E: Casein kinase I isoform epsilon (CSNK1E, Homo sapiens, UniProt P49674)
UniProt P49674, sequence (whole entry, looked up): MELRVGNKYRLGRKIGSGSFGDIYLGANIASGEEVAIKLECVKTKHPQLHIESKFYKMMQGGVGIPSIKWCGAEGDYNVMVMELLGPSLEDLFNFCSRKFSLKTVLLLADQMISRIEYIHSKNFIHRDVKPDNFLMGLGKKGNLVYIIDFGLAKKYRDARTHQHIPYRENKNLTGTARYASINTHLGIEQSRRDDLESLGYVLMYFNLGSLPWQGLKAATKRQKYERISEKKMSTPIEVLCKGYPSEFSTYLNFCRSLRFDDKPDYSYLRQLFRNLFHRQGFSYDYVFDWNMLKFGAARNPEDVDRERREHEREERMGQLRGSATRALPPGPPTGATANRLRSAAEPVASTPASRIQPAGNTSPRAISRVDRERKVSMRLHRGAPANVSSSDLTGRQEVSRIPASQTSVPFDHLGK
DNA polymerase catalytic subunit: DNA polymerase catalytic subunit (Human cytomegalovirus, UniProt P08546)
UniProt P08546, sequence (whole entry, looked up): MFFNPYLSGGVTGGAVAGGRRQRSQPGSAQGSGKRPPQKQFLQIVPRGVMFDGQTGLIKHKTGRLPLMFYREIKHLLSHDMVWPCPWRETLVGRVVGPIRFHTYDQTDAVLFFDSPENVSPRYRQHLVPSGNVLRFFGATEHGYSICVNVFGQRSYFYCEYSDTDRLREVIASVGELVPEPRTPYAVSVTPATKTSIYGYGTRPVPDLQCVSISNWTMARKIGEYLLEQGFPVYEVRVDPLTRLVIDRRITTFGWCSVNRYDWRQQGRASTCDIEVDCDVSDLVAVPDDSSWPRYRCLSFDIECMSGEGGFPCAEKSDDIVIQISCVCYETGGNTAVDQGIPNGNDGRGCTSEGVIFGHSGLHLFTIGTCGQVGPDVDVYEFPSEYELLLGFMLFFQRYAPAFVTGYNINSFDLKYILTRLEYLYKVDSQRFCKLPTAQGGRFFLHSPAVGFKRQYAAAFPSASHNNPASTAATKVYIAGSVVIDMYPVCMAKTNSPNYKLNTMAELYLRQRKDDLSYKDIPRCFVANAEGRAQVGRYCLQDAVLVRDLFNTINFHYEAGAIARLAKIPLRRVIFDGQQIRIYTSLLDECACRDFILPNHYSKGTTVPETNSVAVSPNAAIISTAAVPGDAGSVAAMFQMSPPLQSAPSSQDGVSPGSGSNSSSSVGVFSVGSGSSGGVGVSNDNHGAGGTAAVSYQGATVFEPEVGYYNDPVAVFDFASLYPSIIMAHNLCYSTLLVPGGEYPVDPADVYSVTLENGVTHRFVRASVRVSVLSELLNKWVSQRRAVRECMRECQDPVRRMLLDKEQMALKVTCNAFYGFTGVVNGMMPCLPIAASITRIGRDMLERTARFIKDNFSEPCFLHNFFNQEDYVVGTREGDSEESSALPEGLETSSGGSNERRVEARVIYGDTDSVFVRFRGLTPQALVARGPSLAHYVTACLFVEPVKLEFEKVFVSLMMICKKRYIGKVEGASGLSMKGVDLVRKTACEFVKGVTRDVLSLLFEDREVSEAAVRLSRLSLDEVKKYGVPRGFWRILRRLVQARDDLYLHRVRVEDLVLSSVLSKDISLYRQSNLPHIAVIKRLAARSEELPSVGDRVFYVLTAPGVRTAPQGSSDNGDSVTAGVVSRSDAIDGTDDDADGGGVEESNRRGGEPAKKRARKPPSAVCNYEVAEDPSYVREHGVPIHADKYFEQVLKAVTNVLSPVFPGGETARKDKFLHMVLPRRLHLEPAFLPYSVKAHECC
UniProt O09061, sequence (whole entry, looked up): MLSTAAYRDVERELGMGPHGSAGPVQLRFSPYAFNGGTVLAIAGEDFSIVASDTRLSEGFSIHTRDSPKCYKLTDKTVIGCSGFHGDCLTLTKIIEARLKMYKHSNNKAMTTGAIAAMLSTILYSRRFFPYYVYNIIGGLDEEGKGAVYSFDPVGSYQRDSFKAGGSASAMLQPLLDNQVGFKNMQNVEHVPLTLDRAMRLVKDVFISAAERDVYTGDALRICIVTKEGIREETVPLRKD

Structure (SMILES)	target	test	system	conditions	IC50 [µM]
COc1ccc2c(c1)CN(C(=O)CCN1CCC(Cc3ccccc3)CC1)CC[S@@+]2[O-]	Inward rectifier potassium channel 2 (KCNJ2, Homo sapiens, UniProt P63252)	IK1 current, inhibitor, whole-cell patch clamp	stable cell line	–	> 100
Cc1[nH]c(C)c(S(=O)(=O)Nc2ccc(Cl)c(Cl)c2Cl)c1C(=O)N1CCC(F)(F)C1	DRD2	–	–	–	> 100
CN(C)C(=O)c1cc2cnc(Nc3cc(C(F)(F)F)c(-c4ccc5c(=O)cc(N6CCOCC6)oc5c4)cn3)nc2n1C1CCCC1	CDK6 with cyclin D1	inhibitor, HotSpot radiometric kinase	–	with: 10 µM ATP, cyclin D1	> 10
COc1ccc(-c2cc(OCC(=O)N(C)Cc3cccnc3C)nc(-n3nc(C)cc3C)n2)cc1	Leucyl-cystinyl aminopeptidase (LNPEP, Homo sapiens, UniProt Q9UIQ6)	oxytocin trimming, HPLC	–	30 min, 37 °C, limited by solubility, with: oxytocin 40 µM	> 100
COc1cc(NCC(=O)Nn2c(C)nc3ccc(Cl)cc3c2=O)cc(OC)c1OC	Xanthine dehydrogenase/oxidase (XDH, Bos taurus, UniProt P80457)	enzyme activity, inhibitor	–	–	28.9 ± 2.12
CN1CCN(c2ccc(Nc3ncc4cc(C#N)c(=O)n(C5CCCC5)c4n3)cc2)CC1	Cyclin-dependent kinase 3, with cyclin E (CDK3, Homo sapiens, UniProt Q00526)	–	–	–	1.78
Cc1[nH]c(C)c(S(=O)(=O)Nc2ccc(C(F)(F)F)c(Cl)c2)c1C(=O)N1CC(F)(F)C1	DRD2	–	–	–	> 100
O=C(O)/C(=C/c1c(C(=O)O)[nH]c2cc(Cl)cc(Cl)c12)c1ccccc1	Glutamate receptor ionotropic, NMDA 1 (Grin1, Rattus norvegicus, UniProt P35439)	binding, radioligand binding	rat	–	0.012
C=CC(=O)Nc1cc(Nc2nccc(-c3cn(C)c4ccccc34)n2)c(OC)cc1N(C)CCN(C)C	Multidrug and toxin extrusion protein 2 (SLC47A2, Homo sapiens, UniProt Q86VL8)	inhibitor	–	–	23
Cc1[nH]cc(S(=O)(=O)Nc2ccc(C(F)(F)F)c(Cl)c2)c1C(=O)N(C)C	DRD2	–	–	–	> 100
C[C@H](Oc1nccc(-c2noc([C@@]3(C)CCCc4sc(N)c(C#N)c43)n2)n1)[C@@H]1CCCN1C	KRAS C118S/G12V with SOS1	KRAS G12V-SOS1 interaction, inhibitor, AlphaScreen	–	geometric mean	0.006
C[C@@H]1CN(C(=O)c2ccc(NC(=O)c3cc(O[C@H](C)c4c(Cl)ccc(F)c4Cl)c(N)nn3)cc2)C[C@H](C)N1	BDNF/NT-3 growth factors receptor (NTRK2, Homo sapiens, UniProt Q16620)	cell-based	–	–	0.241
Cc1cc2c(cc1N1C(=O)c3cccc4c(N5CCC(O)CC5)ccc(c34)C1=O)n(C)c(=O)n2C	TAF1L BD2	HTRF	–	GST-tagged protein	0.106
Cc1[nH]c(C)c(S(=O)(=O)Nc2ccc(C(F)(F)F)c(Cl)c2)c1C(=O)N1CCC(C#N)C1 (stereo not shown)	DRD2	–	–	–	> 100
C[C@H]1CN(C)CCN1c1nccc(-c2noc([C@@]3(C)CCCc4sc(N)c(C#N)c43)n2)n1	KRAS C118S/G12V with SOS1	KRAS G12V-SOS1 interaction, inhibitor, AlphaScreen	–	geometric mean	0.026
COc1ccc(-c2oc3cc(Nc4ncc5cc(C(=O)N(C)C)n(C6CCCC6)c5n4)ccc3c(=O)c2F)cc1	CDK6 with cyclin D1	inhibitor, HotSpot radiometric kinase	–	with: 10 µM ATP, cyclin D1	5.26
Nc1nsc(C(=O)NCC2CCCC2)c1Cl	Lysine--tRNA ligase, cytoplasmic	enzyme activity, inhibitor	–	–	1.58
CC1=NOC(CNC(=O)c2cnc3c(c(C)nn3C)c2Cl)C1 (stereo not shown)	60 kDa heat shock protein, mitochondrial with HSP10	HSP60/10-mediated MDH refolding	–	5 min, preincubation before ATP, with: denatured malate dehydrogenase	> 100
CCc1cc2c(cc1N1CCC(N3CCOCC3)CC1)C(C)(C)c1[nH]c3cc(C#N)ccc3c1C2=O	NT-3 growth factor receptor (NTRK3, Homo sapiens, UniProt Q16288)	enzyme activity, inhibitor	–	with: 1 mM ATP	> 0.765
CC(C(=O)O)c1ccc(/C=C2\CCCCC2=O)cc1 (stereo not shown)	PTGS2	inhibitor	–	–	2.88
C=C(Cl)c1c(N)nsc1C(=O)NCC1CCCCC1	Lysine--tRNA ligase, cytoplasmic	enzyme activity, inhibitor	–	–	12.6
COc1ccccc1-c1nccc(COc2ccccc2C[C@@H](Nc2ncnc3oc(-c4ccc(F)cc4)c(-c4ccc(OCCN5CCN(C)CC5)c(Cl)c4C)c23)C(=O)O)n1	MCL1	binding, quench	–	–	0.00061
COc1nc(NCc2cn(-c3ccc(C(=O)Nc4ccc(C(F)(F)F)cc4)cc3)nn2)nc(OC)n1	Collagenase 3 (MMP13, Homo sapiens, UniProt P45452)	–	–	–	0.275 ± 0.017
CC1(C)CCC(CNC(=O)c2snc(N)c2Cl)CC1	Lysine--tRNA ligase, cytoplasmic	enzyme activity, inhibitor	–	–	3.16
Cn1cnc(Cn2ccc3ccc(CNCc4[nH]c5ccccc5c4[C@H]4NC(=O)c5ccc(O)cc54)cc32)c1	GTPase KRas, GppNHp; with RAF1 RBD (KRAS, Homo sapiens, UniProt P01116, G12V)	HTRF	–	–	18.7 ± 8
CC(C)C[C@H](NC(=O)[C@H](CCc1ccccc1)NC(=O)CN1CCOCC1)C(=O)N[C@@H](Cc1ccccc1)C(=O)N[C@@H](CC(C)C)C(=O)[C@@]1(C)CO1	Proteasome subunit beta type-1/Psmb5, β5 subunit (Mus musculus, UniProt O09061+O55234)	proteasome activity, inhibitor	Ba/F3 p210	1 h pulse	0.00642 ± 1e-05
Cc1ccc(NS(=O)(=O)c2c(C(=O)N3CCC(F)(F)C3)c(C)nn2C)cc1Cl	DRD2	–	–	–	> 100
CC[C@@H]1[C@H](F)C(=O)N[C@@H]1COc1nccc2cc(C(N)=O)c(OC)cc12	SNF-related serine/threonine-protein kinase (SNRK, Homo sapiens, UniProt Q9NRH2)	ATP probe binding, KiNativ profiling, refers to: Lys1 probe site	THP-1 cell lysate	–	> 5

Structure (SMILES)	target	test	system	conditions	IC50 [µM]
O=C(CCNC(=S)NCCCC[C@H](NS(=O)(=O)c1cccc(F)c1)C(=O)N[C@@H](Cc1c[nH]c2ccccc12)C(=O)NC1CCC1)NO	NAD-dependent protein deacylase sirtuin-5, mitochondrial (SIRT5, Homo sapiens, UniProt Q9NXA8)	enzyme activity, inhibitor	–	–	1.3 ± 0.1
O=C1NC(=O)C2(N1)c1ccccc1-c1ccccc12	GABA-A receptor alpha-1/beta-3, with gamma-2 subunit (GABRA1/GABRB3, Homo sapiens, UniProt P14867+P28472)	–	–	α1β3γ2 receptor	45
COc1cc(O)c(-c2nc(-c3ccc(F)cc3)c(-c3ccncc3)[nH]2)c(OC)c1	CSNK1E	inhibitor	–	–	> 5
Cc1[nH]c(C)c(S(=O)(=O)Nc2cc(Cl)c(Cl)cc2Cl)c1C(=O)N1CCC(F)(F)C1	DRD2	–	–	–	> 100
CC(C)C[C@H](NC(=O)[C@H](Cc1cccc2ccccc12)NC(=O)OCc1ccccc1)C(=O)N[C@H](CO)Cn1ccnn1	Genome polyprotein, protease domain (Lordsdale virus, UniProt P54634)	protease activity, inhibitor, FRET	–	37 °C	> 10
Cn1c(=O)n(C)c2cc(N3C(=O)c4cccc5cccc(c45)C3=O)c(Br)cc21	TAF1L BD2	HTRF	–	GST-tagged protein	0.463
Cc1cc([C@@H](C)Nc2ccccc2C(=O)O)c2nc(N3CCC(F)(F)CC3)c(C#N)c(=O)n2c1	Phosphatidylinositol 4,5-bisphosphate 3-kinase catalytic subunit delta isoform, with p85 alpha (PIK3CD, Homo sapiens, UniProt O00329)	enzyme activity, inhibitor, ADP-Glo	–	with: 10 µM ATP	> 10
Fc1ccc(-c2nc(-c3ccc4ccccc4c3Br)[nH]c2-c2ccncc2)cc1	CSNK1E	inhibitor	–	–	0.0495 ± 0.0021
Cc1nc(-c2cnc(NC(C)C)n(C)c2=O)ccc1Oc1ccnc(-c2cnn(C)c2)c1	Cytochrome P450 2C19 (CYP2C19, Homo sapiens, UniProt P33261)	metabolism-dependent inhibition, inhibitor	–	30 min preincubation with NADPH	> 100
Cc1cccc(-c2nc(C#CCCO)[nH]c2-c2ccncc2)c1	CSNK1E	inhibitor	–	–	0.393
O=C(Nc1ccc(-c2cccc3ncccc23)cc1)C1CCN(S(=O)(=O)c2ccccc2Cl)CC1	Fatty-acid amide hydrolase 1 (FAAH, Homo sapiens, UniProt O00519)	inhibitor	–	60 min preincubation	0.0214
Cc1nn(-c2nc3c(F)cc(F)cc3s2)c(O)c1C(c1cccc(C(F)(F)F)c1)c1c(C)nn(-c2nc3c(F)cc(F)cc3s2)c1O	Cyclic GMP-AMP synthase (CGAS, Homo sapiens, UniProt Q8N884)	enzyme activity, pyrophosphatase-coupled	–	mean of 3 experiments	23.1
CCc1c(-c2cccc(Cl)c2C)c2c(N[C@H](Cc3ccccc3)C(=O)O)ncnc2n1C (single isomer, unassigned)	MCL1	–	–	–	8.7
C[C@H]1CN(C)CCN1c1nccc(-c2cc([C@@]3(C)CCCc4sc(N)c(C#N)c43)on2)n1	KRAS C118S/G12V with SOS1	KRAS G12V-SOS1 binding, inhibitor, AlphaScreen	–	–	0.042
COc1cc2c(c(OC)c1OC)-c1c(cc3c(c1OC)OCO3)C[C@H](C)[C@](C)(O)[C@H]2OC(=O)c1ccccc1	Cytochrome P450 3A5 (CYP3A5, Homo sapiens, UniProt P20815)	testosterone 6β-hydroxylation, inhibitor, recombinant enzyme	–	15 min, pH 7.4, with: testosterone 50 µM	0.085 ± 0.04
Fc1ccc(-c2nc(-c3ccc4c(c3)OCO4)[nH]c2-c2ccncc2)cc1	CSNK1E	inhibitor	–	–	0.603 ± 0.0726
Cc1cc(Nc2ccc(SC(F)(F)F)cc2)n2ncnc2n1	Dihydroorotate dehydrogenase (quinone), mitochondrial (DHODH, Homo sapiens, UniProt Q02127)	enzyme activity, inhibitor	–	–	> 50
CC1(F)CN(C(=O)Cn2c(=O)c(C(=O)NCc3ccc(Cl)cc3)cc3nc(N4CCN(CC(=O)O)C4=O)cnc32)C1	DNA polymerase catalytic subunit	enzyme activity	–	at least duplicate	0.4
CCN(CC)CCCC(C)Nc1ccnc2cc(Cl)ccc12 (stereo not shown)	Serine/threonine-protein kinase ULK1 (ULK1, Homo sapiens, UniProt O75385)	enzyme activity, inhibitor	–	with: 10 µM ATP	> 10
CC1(C)OC(c2ccc(S(N)(=O)=O)cc2)=C(c2cccc(F)c2)C1=O	PTGS2	inhibitor	–	–	277
Cc1nn(C)c2ncc(C(=O)NCc3ccccc3)c(Cl)c12	60 kDa heat shock protein, mitochondrial with HSP10	HSP60/10-mediated MDH refolding	–	30 min, preincubation before ATP, with: denatured malate dehydrogenase	11
Cc1ccc2[nH]nc(-c3nnc(Nc4ccc([N+](=O)[O-])cc4)s3)c2c1	α-glucosidase	enzyme activity, inhibitor	–	pH 6.8, with: p-nitrophenyl-α-D-glucopyranoside	3.84 ± 1.54
CNCCN1CCN(c2cnc3c(cc(C(=O)NCc4ccc(Cl)cc4)c(=O)n3CC(=O)N3CC(C)(F)C3)n2)C1=O	DNA polymerase catalytic subunit	enzyme activity, inhibitor	–	at least duplicate	0.57
Cc1[nH]c(C)c(S(=O)(=O)Nc2ccc(C(F)(F)F)c(Cl)c2)c1C(=O)N1CC[C@H](F)C1	DRD2	–	–	–	> 100
Cc1cc(Nc2cc(CN3CCOCC3)c3nc(C)c(Cc4ccc(Cl)cc4F)n3n2)n[nH]1	Tyrosine-protein kinase JAK1 (JAK1, Homo sapiens, UniProt P23458)	enzyme activity, inhibitor	–	–	0.0198 ± 0.003
Cc1[nH]c(C)c(S(=O)(=O)Nc2ccc(S(C)(=O)=O)c(Cl)c2)c1C(=O)N1CCC(F)(F)C1	DRD2	–	–	–	> 100
C[C@H]1CN(CC(F)(F)F)CCN1c1nccc(-c2noc([C@@]3(C)CCCc4sc(N)c(C#N)c43)n2)n1	GTPase KRas, with SOS1 (KRAS, Homo sapiens, UniProt P01116)	KRAS wild type-SOS1 interaction, inhibitor, AlphaScreen	–	geometric mean	12.5

Repeated from above:
Structure (SMILES)	target	test	system	conditions	IC50 [µM]
Cc1[nH]c(C)c(S(=O)(=O)Nc2ccc(Cl)c(Cl)c2Cl)c1C(=O)N1CCC(F)(F)C1	DRD2	–	–	–	> 100
Cc1[nH]c(C)c(S(=O)(=O)Nc2cc(Cl)c(Cl)cc2Cl)c1C(=O)N1CCC(F)(F)C1	DRD2	–	–	–	> 100
C[C@H](Oc1nccc(-c2noc([C@@]3(C)CCCc4sc(N)c(C#N)c43)n2)n1)[C@@H]1CCCN1C	KRAS C118S/G12V with SOS1	KRAS G12V-SOS1 interaction, inhibitor, AlphaScreen	–	geometric mean	0.006
O=C(O)/C(=C/c1c(C(=O)O)[nH]c2cc(Cl)cc(Cl)c12)c1ccccc1	Glutamate receptor ionotropic, NMDA 1 (Grin1, Rattus norvegicus, UniProt P35439)	binding, radioligand binding	rat	–	0.012
O=C(CCNC(=S)NCCCC[C@H](NS(=O)(=O)c1cccc(F)c1)C(=O)N[C@@H](Cc1c[nH]c2ccccc12)C(=O)NC1CCC1)NO	NAD-dependent protein deacylase sirtuin-5, mitochondrial (SIRT5, Homo sapiens, UniProt Q9NXA8)	enzyme activity, inhibitor	–	–	1.3 ± 0.1
CCN(CC)CCCC(C)Nc1ccnc2cc(Cl)ccc12 (stereo not shown)	Serine/threonine-protein kinase ULK1 (ULK1, Homo sapiens, UniProt O75385)	enzyme activity, inhibitor	–	with: 10 µM ATP	> 10
